Published values collected from several papers.

For `CC[C@H](C)[C@H](NC(=O)[C@H](Cc1ccccc1)NC(=O)[C@H](CCC(=O)O)NC(=O)[C@H](CCCCNC(=O)COCCOCCNC(=O)COCCOCCNC(=O)CC[C@H](NC(=O)CCCCCCCCCCCCCCCCC(=O)O)C(=O)O)NC(=O)[C@H](C)NC(=O)[C@H](C)NC(=O)[C@H](CCC(N)=O)NC(=O)CNC(=O)[C@H](CCC(=O)O)NC(=O)[C@H](CC(C)C)NC(=O)[C@H](Cc1ccc(O)cc1)NC(=O)[C@H](CO)NC(=O)[C@H](CO)NC(=O)[C@@H](NC(=O)[C@H](CC(=O)O)NC(=O)[C@H](CO)NC(=O)[C@@H](NC(=O)[C@H](Cc1ccccc1)NC(=O)[C@@H](NC(=O)CNC(=O)[C@H](CCC(=O)O)NC(=O)C(C)(C)NC(=O)[C@@H](N)Cc1cnc[nH]1)[C@@H](C)O)[C@@H](C)O)C(C)C)C(=O)N[C@@H](C)C(=O)N[C@@H](Cc1c[nH]c2ccccc12)C(=O)N[C@@H](CC(C)C)C(=O)N[C@H](C(=O)N[C@@H](CCCNC(=N)N)C(=O)NCC(=O)N[C@@H](CCCNC(=N)N)C(=O)NCC(=O)O)C(C)C`, “subjects with mild AEs” read 50% (Caucasian subjects; 1.0 mg).
`C[C@H]1CNCCCN1S(=O)(=O)c1cccc2cncc(F)c12` — result for “subjects with punctate keratitis”: 16.7% (healthy adult men; ocular, 1 drop per eye twice daily, 8 days, adverse event).
`Cn1cc(Nc2nc(N)nc(-c3cccc(-n4ccc5cc(C6CC6)cc(F)c5c4=O)c3CO)n2)cn1` — result for “subjects with vomiting”: 0% (healthy subjects; oral, 300 mg tablet, fasted).
Under “subjects with elevated cholesterol TEAE”, `O=C(O)CCC(=O)O.[2H]C([2H])([2H])Oc1cc(C)c2[nH]ccc2c1CN1CC[C@@H](C2CC2)C[C@H]1c1ccc(C(=O)O)cc1` is recorded as 12.5% (multiple ascending dose; healthy Chinese subjects; 200 mg once daily).
Under “subjects with any serious TEAE”, `Cc1c(Cl)c(C)[n+]([O-])c(Cl)c1-c1noc(-c2cc(O)c(O)c([N+](=O)[O-])c2)n1` is recorded as 0% (healthy Chinese subjects; oral, 50 mg, 10 days).
For `O=C(Nc1cnccc1Cl)N1CCN(Cc2ccc3c(c2)OC(F)(F)O3)CC1`, “subjects with adverse events” read 83.3% (multiple ascending dose; young men; 25 mg, at least 1 treatment-emergent event).
`C=CC(=O)NC1CCN(c2ncc3ncnc(Nc4ccc(Oc5ccc6c(c5)ncn6C)c(C)c4)c3n2)CC1`: “subjects with drug-related diarrhoea” 14% (healthy male volunteers; intravenous then oral, dose not given).
Under “subjects with upper abdominal pain”, `COc1c(N2C[C@@H]3CCCN[C@@H]3C2)c(F)cc2c(=O)c(C(=O)O)cn(C3CC3)c12` is recorded as 1% (healthy volunteers; 400 mg).

Repeated from above:
Under “subjects with elevated cholesterol TEAE”, `O=C(O)CCC(=O)O.[2H]C([2H])([2H])Oc1cc(C)c2[nH]ccc2c1CN1CC[C@@H](C2CC2)C[C@H]1c1ccc(C(=O)O)cc1` is recorded as 12.5% (multiple ascending dose; healthy Chinese subjects; 200 mg once daily).
